Results pooled from the literature.
Compare with care: the assays were run in different laboratories. Several values in a cell are separate wells, animals, samples, runs or records. Numbers after ± are the reported error.

Compound	test system	setting	Cmax
CCN(c1cc(-c2ccc(CN3CCOCC3)cc2)cc(C(=O)NCc2c(C)cc(C)[nH]c2=O)c1C)C1CCOCC1	female CB17 SCID mice, HT-1376 xenograft, plasma	75 mg/kg, day 1	9530 ng/mL
O=S(=O)(c1ccc(-c2ccc3nccc(Nc4ccncn4)c3c2)cc1)N1CCOCC1	BALB/c mice female, brain	intraperitoneal, 10 mg/kg	181 ng/mL
O=[N+]([O-])c1ccc(-c2ccc(O)cc2)c2cccnc12	ICR mice male, plasma	oral, 5 mg/kg	65.9 ng/mL
CNC(=O)c1cc(Oc2ccc(NC(=O)Nc3ccc(Cl)c(C(F)(F)F)c3)c(F)c2)cc[n+]1[O-]	Oatp1b2 knockout mice, plasma	oral, 10 mg/kg regorafenib	405 ± 20.6 ng/mL
CCOC(=O)c1cc(Cl)cc(NC(=O)c2sc(Cl)cc2S(=O)(=O)N(C)c2ccc(OCC)c(OC)c2)c1	male C57BL/6 mice, brain	intraperitoneal, 10 mg/kg	10.3 ng/g
CN1CCC[C@H](CN2c3ccccc3Sc3ccccc32)C1.Cl	fasted female ICR mice, plasma	oral, 16 mg/kg single dose	339 ng/mL
Cn1c(C(F)(F)F)cc(=O)n(-c2cc(Oc3cccnc3OCC(=O)O)c(Cl)cc2F)c1=O	Crl:CD1(ICR) mice, male, plasma	oral diet, 25 ppm in diet, day 1, 90-day toxicity study	147 ng/mL
COc1cc([C@H]2Oc3ccc([C@H]4Oc5cc(O)cc(O)c5C(=O)[C@@H]4O)cc3O[C@@H]2CO)ccc1O	FVB wild-type mice, plasma	oral gavage, 500 mg/kg silymarin	240 nM
NC(=O)c1cc(Oc2ccc(NC(=O)Nc3ccc(Cl)c(C(F)(F)F)c3)c(F)c2)cc[n+]1[O-]	Oatp1b2 knockout mice, plasma	oral, 10 mg/kg regorafenib	27.9 ± 7.17 ng/mL
CO[C@H]1C[C@@H]2CC[C@@H](C)[C@@](O)(O2)C(=O)C(=O)N2CCCC[C@H]2C(=O)O[C@H]([C@H](C)C[C@@H]2CC[C@@H](OC(=O)NCCOCCOCCOCCOCCOCCOCCOCCOCCC(=O)N3CCc4cc(Cn5nc(-c6ccc7oc(N)nc7c6)c6c(N)ncnc65)ccc4C3)[C@H](OC)C2)C[C@@H](O)[C@H](C)/C=C(\C)[C@@H](O)[C@@H](OC)C(=O)[C@H](C)C[C@H](C)/C=C/C=C/C=C/1C	tumour-bearing xenograft mice, plasma	intraperitoneal, 1 mg/kg, weekly dosing	1990 nM
CCN1CCN(Cc2ccc(NC(=O)c3ccc(C)c(NC(=O)c4cncc(-c5cccs5)c4)c3)cc2C(F)(F)F)CC1	C57BL/6 mice, epithelial lining fluid	intraperitoneal, 30 mg/kg	2470 ng/mL
CC1CCNc2c(C(=O)NC/C=C/S(C)(=O)=O)cccc21 (centres unmarked)	male C57BL/6 mice, plasma	oral, 10 mg/kg	405 nM
CCNc1nc2c(c(N3CC(=O)Nc4cc(OC)ccc43)n1)CCC2	C57BL/6 mice, female, plasma	intravenous, 4 mg/kg	1560 ng/mL
CC1(C)CC[C@]2(C(=O)O)CC[C@]3(C)C(=CC[C@@H]4[C@@]5(C)C[C@@H](O)[C@H](OC(=O)/C=C/c6ccc(O)cc6)C(C)(C)[C@@H]5CC[C@]43C)[C@@H]2C1 (relative stereo)	C57BL/6 mice, brain	intraperitoneal, 85 µmol/kg single dose	1.75 nmol/g
Nc1ncc(-c2ccncc2)nc1Nc1ccc2[nH]ccc2c1	C57BL mice, male, plasma	subcutaneous, 10 mg/kg	5100 nM
CCc1nc(C(N)=O)c(Nc2ccc(N3CCC(N4CCN(C)CC4)CC3)c(OC)c2)nc1NC1CCOCC1	female FVB mice, MATE1 knockout, plasma	oral, 10 mg/kg, single dose	485 ± 48 ng/mL
Cc1cc2sc(N)nc2c2cccnc12	female BALB/c mice, plasma	intraperitoneal, 30 mg/kg	6300 ng/mL
Cc1ncccc1-c1cnc(NCc2c(F)ccc3c2CCO3)n2cnnc12	female CB17 SCID mice, HT-1376 xenograft, plasma	75 mg/kg, day 1	5660 ng/mL
Cc1ncsc1-c1ccc(CNC(=O)[C@@H]2C[C@@H](O)CN2C(=O)[C@@H](NC(=O)CCCCCCCCCCCC(=O)NCCCCC#Cc2cccc(-c3nn(-c4nc(C(=O)O)cs4)c(CC4CC4)c3Cc3ccc(S(N)(=O)=O)cc3)c2)C(C)(C)C)cc1	male Swiss albino mice, plasma	intraperitoneal, 5 mg/kg	1800 nM
C[C@H]1[C@@H](O)O[C@@H]2O[C@@]3(C)CC[C@H]4[C@H](C)CC[C@@H]1[C@@]24OO3	female NSG mice, plasma	oral, 60 mg/kg artesunate	936 ng/mL
Cc1c(C(=O)O)ccc2c3n(nc12)[C@@H]1[C@H](C3)N(CC2CC2)[C@@]2(C(=O)Nc3cc(Cl)ccc32)[C@H]1c1cccc(Cl)c1F	female BALB/c nude mice, SJSA-1 xenograft, plasma	oral, 2 mg/kg once daily	2420 nM and 2450 nM and 2050 nM and 2230 nM and 1910 nM
CNC(=O)c1cc(Oc2ccc(NC(=O)Nc3ccc(Cl)c(C(F)(F)F)c3)cc2)ccn1	female Oatp1b2(-/-) mice, DBA1/lacJ, plasma	oral, 10 mg/kg, geometric mean, added: rifampin 20 mg/kg i.v.	5930 ng/mL
COc1cc([C@H]2Oc3cc([C@H]4Oc5cc(O)cc(O)c5C(=O)[C@@H]4O)ccc3O[C@@H]2CO)ccc1O	FVB wild-type mice, plasma	oral gavage, 500 mg/kg silymarin	500 nM

A few entries again:
Compound	test system	setting	Cmax
Cc1c(C(=O)O)ccc2c3n(nc12)[C@@H]1[C@H](C3)N(CC2CC2)[C@@]2(C(=O)Nc3cc(Cl)ccc32)[C@H]1c1cccc(Cl)c1F	female BALB/c nude mice, SJSA-1 xenograft, plasma	oral, 2 mg/kg once daily	2420 nM and 2450 nM and 2050 nM and 2230 nM and 1910 nM
CNC(=O)c1cc(Oc2ccc(NC(=O)Nc3ccc(Cl)c(C(F)(F)F)c3)cc2)ccn1	female Oatp1b2(-/-) mice, DBA1/lacJ, plasma	oral, 10 mg/kg, geometric mean, added: rifampin 20 mg/kg i.v.	5930 ng/mL
COc1cc([C@H]2Oc3cc([C@H]4Oc5cc(O)cc(O)c5C(=O)[C@@H]4O)ccc3O[C@@H]2CO)ccc1O	FVB wild-type mice, plasma	oral gavage, 500 mg/kg silymarin	500 nM
